Assay results gathered from unrelated publications.
Each numbered part is a random draw from the data of one study; scales do not carry over between parts.

Set 1
Target: Prothrombin, mature alpha-thrombin (F2, Homo sapiens, UniProt P00734)
Technique: aptamer microarray, sandwich
Molecule type: DNA with 2'F-ANA
Sample: in vitro
Concentration: 200 nM
Notes: whole 15-mer aptamer, many near background
Together with: Cy3 exosite-II aptamer, 400 nM
Direction: higher = stronger binding
Sequence: GGTTGGTGTGGTTGG
Modification | mean fluorescence intensity [a.u.]
2'F-ANA at 1 3 4 5 6 7 8 9 10 12 15 | 59.5
2'F-ANA at 4 5 7 10 12 13 | 109
2'F-ANA at 3 4 6 7 9 10 11 15 | 242
2'F-ANA at 6 7 8 10 11 | 151
2'F-ANA at 2 5 7 10 11 12 13 14 15 | 111
2'F-ANA at 2 4 7 9 11 15 | 242
2'F-ANA at 6 8 9 14 15 | 164
2'F-ANA at 2 4 5 9 10 12 13 14 15 | 44.5
2'F-ANA at 3 4 10 11 12 14 | 231
2'F-ANA at 5 10 13 | 44.3
2'F-ANA at 4 5 6 7 8 9 11 12 13 | 80.7
2'F-ANA at 1 3 4 5 6 7 8 10 11 13 | 49.6

Set 2
Target: Centromere-binding protein 1, full length, N-terminal tag (CBF1, Saccharomyces cerevisiae, UniProt P17106, residues 1-351)
Chain of UniProt P17106 (whole entry, looked up): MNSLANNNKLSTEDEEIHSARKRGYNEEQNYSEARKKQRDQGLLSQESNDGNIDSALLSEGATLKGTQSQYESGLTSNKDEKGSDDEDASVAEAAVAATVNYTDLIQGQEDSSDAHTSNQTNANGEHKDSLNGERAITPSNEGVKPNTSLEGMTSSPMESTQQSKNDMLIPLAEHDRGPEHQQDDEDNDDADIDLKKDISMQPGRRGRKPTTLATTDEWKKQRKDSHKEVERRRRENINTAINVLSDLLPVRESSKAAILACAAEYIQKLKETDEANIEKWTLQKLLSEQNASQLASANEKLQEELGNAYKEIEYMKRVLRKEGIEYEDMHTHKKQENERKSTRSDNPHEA
Technique: protein-binding microarray
Molecule type: double-stranded DNA, one strand shown
Sample: in vitro
Concentration: 0.8 µM
Notes: whole 60-bp probe, no competitor
Direction: higher = stronger binding
Constant ends, left off below: … GTCTTGATTCGCTTGACGCTGCTG
Sequence | fluorescence intensity [a.u.]
TGTACGAAGCTATATCATCACACTATAGTAGTTAGG | 553
GAACTTAATCACTCCGGCGTGGGGAAAGAAAGCTAG | 522
CTAATGTGTGATGGACATCAGCATTCAATGTATTTC | 517
GAAACTATCGCGTGCCACCACCATCACAGACAATAG | 870
CTACTGCTGTCATAACGCGTGGTGTTGTGGTTTTTC | 578
GAACATTTAGTACCTCACGCATTACATATCTCATAG | 579
CTAAAATTTTTTCGTCAGCTCTCCGAGTTCATATTC | 542
GAATAACATCACTATTACATCAGGAATAGCTGTTAG | 504

Set 3
Target: Sal-like protein 4, full length isoform B (SALL4, Homo sapiens, UniProt Q9UJQ4-2, residues 1-616)
Technique: universal PBM
Molecule type: double-stranded DNA, one strand shown
Sample: in vitro
Concentration: not given
Notes: 8-mer, flanks averaged, mean of replicates
Direction: higher = stronger binding
Construct (chain): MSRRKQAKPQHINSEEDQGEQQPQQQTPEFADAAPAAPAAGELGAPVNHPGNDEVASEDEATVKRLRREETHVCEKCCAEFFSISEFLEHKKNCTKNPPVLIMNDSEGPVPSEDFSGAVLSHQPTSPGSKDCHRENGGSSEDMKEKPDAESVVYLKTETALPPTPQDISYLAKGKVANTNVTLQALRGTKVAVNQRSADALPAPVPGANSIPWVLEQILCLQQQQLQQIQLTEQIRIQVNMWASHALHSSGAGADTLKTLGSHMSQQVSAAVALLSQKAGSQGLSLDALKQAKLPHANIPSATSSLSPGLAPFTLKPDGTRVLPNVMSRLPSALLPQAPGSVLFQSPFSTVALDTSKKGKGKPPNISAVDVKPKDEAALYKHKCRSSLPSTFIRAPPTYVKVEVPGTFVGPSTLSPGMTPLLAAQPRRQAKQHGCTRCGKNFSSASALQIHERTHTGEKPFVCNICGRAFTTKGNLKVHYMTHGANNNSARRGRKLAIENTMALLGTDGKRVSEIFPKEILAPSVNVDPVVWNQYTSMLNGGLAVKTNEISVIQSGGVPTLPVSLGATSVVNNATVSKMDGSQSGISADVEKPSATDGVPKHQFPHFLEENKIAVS
Sequence | E-score
AGAATGTA | 0.231
TACCGTAA | 0.126
ACCGGCTC | -0.218
ACGGGCAC | -0.276
AGGTTCGC | -0.248
CACAGACC | -0.323
CAGGCTCC | -0.321
ATAGGAGC | 0.0999
CCCGCAGC | -0.35

Further values, each from its own experiment
Substance | target | assay | system | setting | scale | endpoint | value
PhoQ, residues 284 288 289 292 302 303 SNGLAW | PhoP, residues 12 14 15 18 19 NHFRA (Escherichia coli, UniProt P23836) | Sort-seq, item: YFP reporter | E. coli | PhoQ-PhoP variant library, together with: 10 µM Mg2+ | baseline: high Mg2+ state, higher = stronger signaling | fold induction | 6.16
